Results of several laboratories.
Effect on: metabolic stability

| SMILES | system | setting | half-life [min] |
| --- | --- | --- | --- |
| C=CC(=O)Nc1cccc(Cn2ncc3cnc(Nc4cnn(CCOC)c4)nc32)c1 | male CD-1 mouse, hepatocytes | – | 108 |
| C/C(=N\OCCN(C)Cc1ccccc1)c1ccc(C(F)(F)F)cc1 | mouse, liver microsomes | – | 1.98 |
| C=C(NC(=O)c1csc(-c2nc3c(cc2O)-c2nc(cs2)C(=O)NC(C(C)O)C(=O)NC(=C(C)OC)c2nc(cs2)C(=O)NC2c4nc(cs4)C(=O)NC(COC(=O)c4c5c6c(cccc6n4O)COC(=O)C(OC4CC(C)(O)C(N(C)C)C(C)O4)C2OC5)c2nc-3cs2)n1)C(N)=O (centres unmarked) | mouse, liver microsomes | 2 µM | 357 |
| N=C(c1ccc([N+](=O)[O-])o1)N1CCC(NC(=O)c2cc(-c3ccc(F)cc3F)on2)(c2nc3ccccc3[nH]2)CC1 | mouse, liver microsomes | 1 µM | 6.3 |
| Cc1sc2c(c1C)C(c1ccc(Cl)cc1)=N[C@@H](CC(=O)NCCCCCCCCC(=O)N1CCN(C(=O)c3cc(Cc4n[nH]c(=O)c5ccccc45)ccc3F)CC1)c1nnc(C)n1-2 | mouse, liver microsomes | – | 2.3 |
| C#CCCCC/C=C/C(=O)NC1(c2ccc(-c3nc4ccn5c(=O)[nH]nc5c4cc3-c3ccccc3)cc2)CCC1 | CD-1 mouse, liver microsomes | 1 µM, pH 7.4 | 24.7 |
| Cc1nc2ccc(S(=O)(=O)n3nc(SCc4ccc(Cl)cc4)nc3N)cc2s1 | mouse, liver microsomes | 1 µM, pH 7.4 | 2.3 |
| CC(C)n1ncc2c(C(=O)NC3(C)CNC3)cc(C3CC3)nc21 | mouse, liver microsomes | – | > 145 |
| Cc1c(Cc2cccc(OC(C)(C)C(=O)O)c2)c2ccc(C(=O)N[C@@H](C)c3cccc(C(C)(C)C)c3)cc2n1CC(C)(C)C | mouse, liver microsomes | – | 12.3 |
| CC(C)n1ncc2c(C(=O)NCC3CCN3)cc(C3CC3)nc21 (centres unmarked) | mouse, liver microsomes | – | 23.4 |
| O=C(Nc1cc(-c2ccnc3[nH]ccc23)c(Cl)cn1)[C@H]1CCC[C@@H](NC(=O)C(F)(F)F)C1 | mouse, liver microsomes | – | 21.6 |
| OCCn1nc(-c2ccccc2)c2c(Cl)c(-c3ccccc3)nnc21 | mouse, liver microsomes | 1 µM | < 5 |
| Cc1c(Cc2cccc(OC(C)(C)C(=O)O)c2)c2ccc(C(=O)N[C@@H](C)c3ccc(C(C)(C)C)cc3)cc2n1CC1CCC1 | mouse, liver microsomes | – | > 60 |
| CC(C)n1ncc2c(C(=O)NCC3CNC3)cc(C3CC3)nc21 | mouse, liver microsomes | – | > 145 |
| Cc1c(Cc2ccc(Cl)c(OC(C)C(=O)O)c2)c2ccc(C(=O)NC(C)c3ccc(C(C)(C)C)cc3)cc2n1CC1CC1 (centres unmarked) | mouse, liver microsomes | – | > 60 |
| [2H]C([2H])(N)C([2H])([2H])NC(=O)c1cc(C2CC2)nc2c1cnn2C(C)C | mouse, liver microsomes | – | > 145 |
| CN1CCN(C(=O)c2ccc(-c3cc4nccc(-c5ccc6cnccc6c5)c4o3)cc2)CC1 | mouse, liver microsomes | – | 4.6 |
| Cc1c(Cc2cccc(OC(C)(C)C(=O)O)c2)c2ccc(C(=O)NCc3cccc(C(C)(C)C)c3)cc2n1CC1CCC1 | mouse, liver microsomes | – | 31 |
| CC(C)(C)[C@H](NC(=O)c1ccc(Oc2ccc(C(=O)N[C@H]3CCCC[C@@H]3O)cc2)cc1)C(=O)NCCN1CCCC1 | mouse, liver microsomes | 1 µM, pH 7.4 | 113 |
| Cc1ncsc1-c1ccc(CNC(=O)[C@@H]2C[C@@H](O)CN2C(=O)[C@@H](NC(=O)COCCOCCOCCNC(=O)C[C@@H]2N=C(c3ccc(Cl)cc3)c3c(sc(C)c3C)-n3c(C)nnc32)C(C)(C)C)cc1 | mouse, liver microsomes | 1 µM | 5.2 |
| O=C(N[C@@H](CCCCNC(=O)c1ccc([N+](=O)[O-])o1)c1nc2ccccc2[nH]1)c1ccc(-c2ccccc2)cc1 | mouse, liver microsomes | 1 µM | 6.6 |
| Cc1c(Cc2ccc(Cl)c(O[C@@H](C)C(=O)O)c2)c2ccc(C(=O)N[C@@H](C)c3ccc(C(C)(C)C)cc3)cc2n1CC1CCC1 | mouse, liver microsomes | – | > 60 |
| O=C(Oc1cccc(CSc2ncccn2)c1)c1ccc([N+](=O)[O-])cc1 | mouse, liver microsomes | – | < 1 |
| Cc1c(Cc2ccc(Cl)c(O[C@H](C)C(=O)O)c2)c2ccc(C(=O)N[C@@H](C)c3ccc(C(C)(C)C)cc3)cc2n1C | mouse, liver microsomes | – | 42 |
| CC(C)n1ncc2c(C(=O)NCCN(C)C)cc(C3CC3)nc21 | mouse, liver microsomes | – | 21.3 |
| CCn1c(C)c(Cc2cccc(OC(C)(C)C(=O)O)c2)c2ccc(C(=O)N[C@@H](C)c3cccc(C(C)(C)C)c3)cc21 | mouse, liver microsomes | – | 68.5 |
| C/C(=N\OCCCN1CCOCC1)c1ccc(C(F)(F)F)cc1 | mouse, liver microsomes | – | 18.9 |
| Cc1c(Cc2cc(Cl)cc(OC(C)C(=O)O)c2)c2ccc(C(=O)NC(C)c3ccc(C(C)(C)C)cc3)cc2n1CC1CC1 (centres unmarked) | mouse, liver microsomes | – | > 60 |
| O=c1c(-c2cnn(-c3ccc(Cl)cc3)c2)c(C(F)(F)F)oc2c(O)c(O)ccc12 | mouse, liver microsomes | – | 321 |

For quick reference, copied from above:
| SMILES | system | setting | half-life [min] |
| --- | --- | --- | --- |
| O=C(N[C@@H](CCCCNC(=O)c1ccc([N+](=O)[O-])o1)c1nc2ccccc2[nH]1)c1ccc(-c2ccccc2)cc1 | mouse, liver microsomes | 1 µM | 6.6 |
| Cc1c(Cc2ccc(Cl)c(O[C@@H](C)C(=O)O)c2)c2ccc(C(=O)N[C@@H](C)c3ccc(C(C)(C)C)cc3)cc2n1CC1CCC1 | mouse, liver microsomes | – | > 60 |
